Measurements pooled from the literature.
Protocols differ between the studies behind these lines. Several values in a cell are separate wells, animals, samples, runs or records. Numbers after ± are the reported error. Ends that are not written are not given here.

| Molecule | tested on | assay | test system | conditions | how to read | endpoint | result |
| --- | --- | --- | --- | --- | --- | --- | --- |
| GsMTx4 | stretch-activated cation channel, rat | ion current, outside-out patch clamp | rat astrocytes | dose not given, 10 s after washout, mean of last eight pressure steps |  | SAC current after washout | 2.28 ± 0.17 pA |
| CC(C)=CC[C@@H](O)C1=CC(=O)c2c(O)ccc(O)c2C1=O | Enterovirus A71 2A protease | enzyme activity, FRET |  |  |  | IC50 | > 60 µM |
| COc1ccc2cc3[n+](cc2c1OC)CCc1cc2c(cc1-3)OCO2 | SARS-CoV-2 envelope protein |  | Vero C1008 | 2.5 µg/mL |  | inhibition | 12.5 ± 0.8% |
| GCCSNPVCHLEHSNLC (α-conotoxin MII; not fully specified (C-terminus, bridges); cysteine pairing not given here; sequence looked up) | nAChR, mouse | ion current | peptide, SCG neurons of wild-type mice | dose not given | reference: control | remaining peak current | 100% and 98.4% and 98.2% |
| NC1=N[C@H](O)[C@H]2[C@H]3O[C@]4(O)O[C@@H]([C@@H](O)[C@@]2(N1)[C@@H]4O)[C@]3(O)CO | voltage-gated sodium channels | depolarization-evoked action potentials, inhibitor |  | concentration not given |  | action potential firing | inhibited |
| CCC(C)SSc1ncc[nH]1 (stereo not drawn) | Enterovirus A71 2A protease | enzyme activity, FRET |  |  |  | IC50 | > 60 µM |
| GTILTRPLLESELVI | human CD4 T cells | AIM | peptide |  |  | responding donors | 17% |
| CC(=O)c1ccc(NC(=O)c2sc3nc4c(cc3c2N)CCCC4)cc1 | PrP^Sc | prion propagation | ScN2a-cl3 cells, dividing |  |  | EC50 | > 10 µM |
| C[C@H](C(=O)N[C@H]1COc2ccccc2[C@@H]1S(C)(=O)=O)c1ccc(F)cc1 | strychnine-sensitive glycine receptor, rat | binding |  | 10 µM, Eurofins selectivity panel |  | inhibition | -12% |
| CCN(CC)C(=S)SSC(=S)N(CC)CC | Enterovirus A71 3C protease | enzyme activity, FRET |  |  |  | IC50 | > 60 µM |
| CC(C)CC(=O)OC[C@H]1O[C@@](C#N)(c2ccc3c(N)ncnn23)[C@H](O)[C@@H]1O | strychnine-sensitive glycine receptor rat | radioligand binding |  | 20 µM |  | inhibition | 6% |
| oseltamivir | neuraminidase, influenza A/Texas/37/2024 (H5N1) | enzyme activity, inhibitor |  |  |  | IC50 | 0.00319 ± 0.00072 µM |
| CNC(=O)[C@@H](NC(=O)[C@H](CC(C)C)[C@H](O)C(=O)NO)C(C)(C)C | snake venom metalloproteinase | proteolytic activity, inhibitor | Daboia russelii, venom RJ | with: azocasein |  | IC50 | 1.44 µM and 1.99 µM and 1.57 µM |
| CC[C@@]1(O)C[C@H](O[C@H]2C[C@H](N(C)C)[C@H](O[C@H]3C[C@H](O)[C@H](O[C@H]4CCC(=O)[C@H](C)O4)[C@H](C)O3)[C@H](C)O2)c2c(cc3c(c2O)C(=O)c2c(O)cccc2C3=O)[C@H]1C(=O)OC | SARS-CoV-2 NSP7, NSP8 and RdRp |  | SARS-CoV-2 | 0.4 µM, 24 h, with: ET-770 30 nM |  | protein expression | no effect |
| O=c1c2ccccc2[se]n1-c1ccccc1 | Enterovirus A71 2A protease | enzyme activity, FRET |  |  |  | IC50 | > 60 µM |
| IPFAMQMAYRFNGIG | human CD4 T cells | AIM | peptide |  |  | responding donors | 18% |
| CCC(CC)[C@H](NC(C)=O)[C@@H]1[C@H](O)[C@@H](C(=O)O)C[C@H]1N=C(N)N | neuraminidase N1 swine influenza |  | influenza A virus, swine strains | mean |  | IC50 | 0.00022 µM |
| QPLRKLCILHRNPGRCYQKIPAFYYNQKKKQCEGFTWSGCGGNSNRFKTIEECRRTCIRK (dendrotoxin I; ends and bridges not checked; cysteine pairing not given here; sequence looked up) | maxi-KCa channel, rat muscle | channel block, planar bilayer single-channel |  | 460 nM, no BPTI |  | DTX substate probability | 0.968 |

Some of these lines once more:
| Molecule | tested on | assay | test system | conditions | how to read | endpoint | result |
| --- | --- | --- | --- | --- | --- | --- | --- |
| CC(C)CC(=O)OC[C@H]1O[C@@](C#N)(c2ccc3c(N)ncnn23)[C@H](O)[C@@H]1O | strychnine-sensitive glycine receptor rat | radioligand binding |  | 20 µM |  | inhibition | 6% |
| oseltamivir | neuraminidase, influenza A/Texas/37/2024 (H5N1) | enzyme activity, inhibitor |  |  |  | IC50 | 0.00319 ± 0.00072 µM |
| CNC(=O)[C@@H](NC(=O)[C@H](CC(C)C)[C@H](O)C(=O)NO)C(C)(C)C | snake venom metalloproteinase | proteolytic activity, inhibitor | Daboia russelii, venom RJ | with: azocasein |  | IC50 | 1.44 µM and 1.99 µM and 1.57 µM |
